Measured values from different studies.
± gives the spread as reported.

The plasma concentration of N=C(N)c1ccc(CNC(=O)[C@@H]2CCN2C(=O)[C@H](NCC(=O)O)C2CCCCC2)cc1 is reported as 19 ng/mL (Wistar rats male, plasma; intravenous, 0.01 mg/kg, 15 min, 10 min after TF).
The plasma concentration of OC[C@H]1O[C@@H](c2ccc(Cl)c(Cc3ccc(O[C@H]4CCOC4)cc3)c2)[C@H](O)[C@@H](O)[C@@H]1O is reported as 158 ± 32.4 ng/mL (HPLC-MS/MS; healthy Chinese volunteers, fasting; oral, 10 mg tablet, 1.75 h).
O=C(OC(C(F)(F)F)C(F)(F)F)N1CCN(Cc2ccc(C(F)(F)F)cc2N2CCCC2)CC1 gave a plasma concentration of 170 ± 19 ng/mL (wild-type mouse, plasma; oral in chow, 350 mg/kg chow, 3 days, P21).
The plasma concentration of Cc1ccc([C@H]2C[C@@H]2COc2cc(NCc3nnc(C)s3)nc(C)n2)nc1 is reported as 17 nM (rat (MK-801-induced hyperlocomotion), plasma; oral, 0.25 mg/kg, 2.5 h).
CNC(=O)c1cc2c(Oc3ccc(NC(=O)C4(C(=O)Nc5ccc(F)cc5)CC4)cc3)ccnc2cc1OC has a plasma concentration of 63000 nM (LC-MS/MS; mouse, Hs746T xenograft, plasma; oral, 100 mg/kg single dose, 4 h).
The plasma concentration of COc1cc2c(cc1OC)CN(CCc1ccc(NC(=O)c3cc(OC)c(OC)cc3NC(=O)c3cnc4ccccc4c3)cc1)CC2 is reported as 43 ng/mL (patients, plasma; intravenous, 150 mg, 72 h post-dose, cycle 1, no vinorelbine).
With CCn1nc(C2CC2)cc1Nc1nc(C(=O)NCCCCCc2cccc3c2CN(C2CCC(=O)NC2=O)C3=O)nc2[nH]c3cc(-c4c(C)noc4C)c(OC)cc3c12 (centres unmarked) the plasma concentration was 5.5 ng/mL (female SCID C.B-17 mouse, plasma; intravenous, 5 mg/kg single, 6 h).
COc1cc2c(cc1OC)CN(CCc1ccc(NC(=O)c3cc(OC)c(OC)cc3NC(=O)c3cnc4ccccc4c3)cc1)CC2 gave a plasma concentration of 807 ng/mL (Wistar Unilever rat, plasma; intravenous, 5 mg/kg, 3 h).
The plasma concentration of CS(=O)(=O)n1cc2c(n1)CN([C@H]1CO[C@H](c3cc(F)ccc3F)[C@@H](N)C1)C2 is reported as 8.1 nM (healthy Japanese men, fasted, plasma; oral, 10 mg single dose, 168 h).
CC(C)(O/N=C(\C(=O)N[C@H]1CN2CC(C(=O)NCCN3C(=O)c4cc(O)c(O)cc4C3=O)=C(C(=O)O)N2C1=O)c1nc(N)sc1Cl)C(=O)O gave a plasma concentration of 3140 ng/mL (CD-1 mouse, plasma; subcutaneous, 50 mg/kg, 1 h).
CNC(=O)c1ccccc1Sc1ccc2c(/C=C/c3ccccn3)n[nH]c2c1 gave a plasma concentration of 0.155 ng/mL (New Zealand White rabbit, plasma; suprachoroidal, 1 mg/eye, 6 h).

Some of these lines once more:
The plasma concentration of Cc1ccc([C@H]2C[C@@H]2COc2cc(NCc3nnc(C)s3)nc(C)n2)nc1 is reported as 17 nM (rat (MK-801-induced hyperlocomotion), plasma; oral, 0.25 mg/kg, 2.5 h).
